Assay results gathered from unrelated publications.
Every numbered part comes from another study and shows a few of its results, in no order. Changes are numbered by the printed parent chain.
Chain of UniProt P08069 (whole entry, looked up): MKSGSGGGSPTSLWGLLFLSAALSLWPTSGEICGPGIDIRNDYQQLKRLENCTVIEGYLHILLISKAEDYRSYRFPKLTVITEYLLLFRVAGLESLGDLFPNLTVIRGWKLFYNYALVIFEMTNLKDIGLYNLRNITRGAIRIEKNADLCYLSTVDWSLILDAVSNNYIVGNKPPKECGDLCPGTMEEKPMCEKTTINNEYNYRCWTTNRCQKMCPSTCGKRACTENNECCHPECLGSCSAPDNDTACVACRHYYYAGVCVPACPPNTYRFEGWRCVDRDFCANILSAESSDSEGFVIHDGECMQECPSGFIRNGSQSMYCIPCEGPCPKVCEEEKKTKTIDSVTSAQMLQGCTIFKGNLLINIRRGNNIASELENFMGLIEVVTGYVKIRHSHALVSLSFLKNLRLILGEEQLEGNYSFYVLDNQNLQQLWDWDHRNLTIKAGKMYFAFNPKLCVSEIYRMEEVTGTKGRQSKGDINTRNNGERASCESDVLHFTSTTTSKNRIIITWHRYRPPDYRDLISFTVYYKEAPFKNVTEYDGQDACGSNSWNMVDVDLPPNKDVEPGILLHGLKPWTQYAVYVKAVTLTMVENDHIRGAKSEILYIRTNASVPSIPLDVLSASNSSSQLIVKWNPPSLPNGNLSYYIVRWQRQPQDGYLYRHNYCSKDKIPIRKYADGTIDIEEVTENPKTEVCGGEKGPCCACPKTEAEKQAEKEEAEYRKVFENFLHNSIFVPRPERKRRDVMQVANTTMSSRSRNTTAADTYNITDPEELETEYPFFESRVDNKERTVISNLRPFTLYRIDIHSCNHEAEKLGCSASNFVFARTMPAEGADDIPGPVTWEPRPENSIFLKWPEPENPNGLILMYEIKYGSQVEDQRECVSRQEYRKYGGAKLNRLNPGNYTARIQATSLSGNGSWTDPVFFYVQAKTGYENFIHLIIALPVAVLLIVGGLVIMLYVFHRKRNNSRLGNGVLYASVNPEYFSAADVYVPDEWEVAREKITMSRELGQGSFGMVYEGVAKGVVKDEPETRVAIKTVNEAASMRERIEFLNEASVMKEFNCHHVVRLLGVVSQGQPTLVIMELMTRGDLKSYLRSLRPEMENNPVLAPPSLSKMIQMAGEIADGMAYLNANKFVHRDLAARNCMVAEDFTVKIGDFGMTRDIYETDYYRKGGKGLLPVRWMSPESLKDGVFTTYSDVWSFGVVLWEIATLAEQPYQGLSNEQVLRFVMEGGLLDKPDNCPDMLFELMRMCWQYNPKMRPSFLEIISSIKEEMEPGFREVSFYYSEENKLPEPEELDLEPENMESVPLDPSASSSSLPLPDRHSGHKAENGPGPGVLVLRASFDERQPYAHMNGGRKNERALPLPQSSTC

Study 1 — effect on: binding; technique: phage display NGS; form: peptide; concentration: concentration not given; setting: panning round 2; reference: input library
Target: UDP-N-acetylglucosamine--peptide N-acetylglucosaminyltransferase 110 kDa subunit (OGT, Homo sapiens, UniProt O15294)
Chain of UniProt O15294 (whole entry, looked up): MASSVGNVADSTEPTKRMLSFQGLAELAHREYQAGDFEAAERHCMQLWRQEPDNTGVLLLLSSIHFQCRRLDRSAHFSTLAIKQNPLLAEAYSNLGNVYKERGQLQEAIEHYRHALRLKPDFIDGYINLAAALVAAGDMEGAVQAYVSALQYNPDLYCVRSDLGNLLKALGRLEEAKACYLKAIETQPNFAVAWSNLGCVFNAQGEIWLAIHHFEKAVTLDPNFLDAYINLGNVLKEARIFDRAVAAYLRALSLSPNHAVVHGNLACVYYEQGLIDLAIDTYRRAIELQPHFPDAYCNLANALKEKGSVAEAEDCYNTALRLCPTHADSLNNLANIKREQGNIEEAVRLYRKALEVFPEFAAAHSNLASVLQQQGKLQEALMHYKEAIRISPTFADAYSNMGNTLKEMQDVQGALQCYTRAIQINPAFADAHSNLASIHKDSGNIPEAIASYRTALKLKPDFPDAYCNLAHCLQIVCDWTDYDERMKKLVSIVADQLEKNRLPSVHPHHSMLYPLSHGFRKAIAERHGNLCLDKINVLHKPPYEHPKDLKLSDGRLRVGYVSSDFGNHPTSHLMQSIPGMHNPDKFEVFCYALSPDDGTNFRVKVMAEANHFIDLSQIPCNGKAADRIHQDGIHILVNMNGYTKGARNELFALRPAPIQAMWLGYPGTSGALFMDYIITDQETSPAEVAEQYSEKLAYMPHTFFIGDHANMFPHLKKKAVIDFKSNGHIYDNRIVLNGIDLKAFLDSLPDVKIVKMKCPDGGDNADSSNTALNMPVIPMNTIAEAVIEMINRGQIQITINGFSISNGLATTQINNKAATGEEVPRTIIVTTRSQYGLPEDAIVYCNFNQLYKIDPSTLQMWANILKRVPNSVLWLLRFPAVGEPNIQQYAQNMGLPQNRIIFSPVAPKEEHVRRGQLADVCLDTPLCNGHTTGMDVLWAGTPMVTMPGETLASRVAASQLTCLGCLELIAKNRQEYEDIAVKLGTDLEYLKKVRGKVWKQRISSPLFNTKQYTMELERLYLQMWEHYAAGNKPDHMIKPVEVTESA
Molecule | enrichment fold change
DFLYMPKYQMVFDFT | 94.9
QQFSKLFPPKYTIDF | 106
FSFKPVYEIVLEQK | 14.7
WPHAQHITHQDDWHR | 4.82
GMSPWHFHSHQAIMV | 5.82
HVHGASPHSRNHSA | 6.13
ADFQLTYKPLYQIVA | 7.62
THPTKYHRHDHIRMI | 5.41

Study 2 — target: tungstate, free oxyanion; technique: microfluidic competitive inhibition; matrix: in vitro, cell-free expressed; concentration: not given; direction: lower = stronger binding
Setting: derived from inhibition constants, unchanged parent 2230 nM
Starting sequence: PafA, mature enzyme, eGFP fusion (Elizabethkingia meningoseptica, UniProt Q9KJX5); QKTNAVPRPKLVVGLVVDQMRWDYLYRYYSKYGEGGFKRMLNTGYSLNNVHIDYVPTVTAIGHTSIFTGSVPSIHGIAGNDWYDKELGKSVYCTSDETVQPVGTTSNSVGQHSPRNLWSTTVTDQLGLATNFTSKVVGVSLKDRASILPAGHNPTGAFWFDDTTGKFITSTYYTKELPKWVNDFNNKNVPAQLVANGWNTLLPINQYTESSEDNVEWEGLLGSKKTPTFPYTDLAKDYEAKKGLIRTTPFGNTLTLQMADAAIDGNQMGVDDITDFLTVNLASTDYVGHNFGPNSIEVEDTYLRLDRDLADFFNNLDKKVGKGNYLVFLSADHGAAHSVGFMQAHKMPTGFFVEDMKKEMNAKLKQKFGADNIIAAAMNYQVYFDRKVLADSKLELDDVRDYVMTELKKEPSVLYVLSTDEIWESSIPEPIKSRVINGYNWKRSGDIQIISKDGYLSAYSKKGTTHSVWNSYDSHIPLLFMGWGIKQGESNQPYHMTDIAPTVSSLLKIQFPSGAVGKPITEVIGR
Variant | oxyanion analog dissociation constant [µM]
T3G | 2.22
G340V | 2.47
L220G | 1.79
T200V | 2.21
T155V | 2.2
V320G | 1.5
D308G | 2.08
A78V | 1.6

Study 3 — target: CCNB3, cyclin fold, Cln2 fusion (human); technique: yeast growth competition, sequencing; matrix: yeast; setting: strong parent motif; reference: not given; direction: higher = stronger binding
Starting sequence: viral docking peptide; TSVRRALFTGGSD; partner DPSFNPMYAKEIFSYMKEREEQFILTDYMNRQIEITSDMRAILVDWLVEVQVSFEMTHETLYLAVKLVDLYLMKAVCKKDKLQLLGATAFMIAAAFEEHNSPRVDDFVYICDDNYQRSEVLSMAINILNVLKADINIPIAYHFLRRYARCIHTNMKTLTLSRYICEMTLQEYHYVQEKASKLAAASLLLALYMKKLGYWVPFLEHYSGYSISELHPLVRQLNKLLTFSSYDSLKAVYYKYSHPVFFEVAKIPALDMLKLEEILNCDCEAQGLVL
Variant | normalised enrichment score
TSVMRALFTGGSD [R4M] | 0.417
TSVRRALFTGGQD [S12Q] | 2.25
TSVRRKLFTGGSD [A6K] | 3.62
TSVRRALFQGGSD [T9Q] | 1.45
TSVRRALFTGGID [S12I] | 1.62
TSVRRALQTGGSD [F8Q] | 0.295
TSVRRALFTGGKD [S12K] | 1.05
TSVRRAYFTGGSD [L7Y] | 0.464

Other studies, line by line
Compound | target | effect on | action | quantity | value
COC(=O)c1cc(N(C)C(=O)c2ccn3ncc(-c4ccc(C(=O)O)cc4)c3c2)ccc1Cl | Insulin-like growth factor 1 receptor (IGF1R, Homo sapiens, UniProt P08069) | enzyme activity | inhibitor | IC50 | > 30 µM

For quick reference, copied from above (study 2):
Variant | oxyanion analog dissociation constant [µM]
D308G | 2.08
